Measurements pooled from the literature.
Each numbered part is a random draw from the data of one study; scales do not carry over between parts. Several values in a cell are separate wells, animals, samples, runs or records.
Sequence of UniProt Q99755 (whole entry, looked up): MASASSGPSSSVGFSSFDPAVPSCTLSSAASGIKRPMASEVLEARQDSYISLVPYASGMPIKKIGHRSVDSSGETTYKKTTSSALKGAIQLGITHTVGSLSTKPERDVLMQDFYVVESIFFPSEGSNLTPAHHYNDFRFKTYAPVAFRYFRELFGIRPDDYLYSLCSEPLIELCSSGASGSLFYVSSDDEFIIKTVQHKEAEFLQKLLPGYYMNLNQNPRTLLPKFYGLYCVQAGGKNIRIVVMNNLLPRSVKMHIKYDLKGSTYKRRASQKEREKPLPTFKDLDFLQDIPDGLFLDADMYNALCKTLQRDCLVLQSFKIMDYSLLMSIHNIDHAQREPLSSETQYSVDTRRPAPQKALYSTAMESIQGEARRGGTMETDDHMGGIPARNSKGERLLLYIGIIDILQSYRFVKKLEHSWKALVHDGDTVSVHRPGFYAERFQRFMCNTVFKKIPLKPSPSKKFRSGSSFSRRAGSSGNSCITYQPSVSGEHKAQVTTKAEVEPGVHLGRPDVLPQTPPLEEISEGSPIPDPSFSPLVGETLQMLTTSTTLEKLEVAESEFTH
Sequence of UniProt Q02156 (whole entry, looked up): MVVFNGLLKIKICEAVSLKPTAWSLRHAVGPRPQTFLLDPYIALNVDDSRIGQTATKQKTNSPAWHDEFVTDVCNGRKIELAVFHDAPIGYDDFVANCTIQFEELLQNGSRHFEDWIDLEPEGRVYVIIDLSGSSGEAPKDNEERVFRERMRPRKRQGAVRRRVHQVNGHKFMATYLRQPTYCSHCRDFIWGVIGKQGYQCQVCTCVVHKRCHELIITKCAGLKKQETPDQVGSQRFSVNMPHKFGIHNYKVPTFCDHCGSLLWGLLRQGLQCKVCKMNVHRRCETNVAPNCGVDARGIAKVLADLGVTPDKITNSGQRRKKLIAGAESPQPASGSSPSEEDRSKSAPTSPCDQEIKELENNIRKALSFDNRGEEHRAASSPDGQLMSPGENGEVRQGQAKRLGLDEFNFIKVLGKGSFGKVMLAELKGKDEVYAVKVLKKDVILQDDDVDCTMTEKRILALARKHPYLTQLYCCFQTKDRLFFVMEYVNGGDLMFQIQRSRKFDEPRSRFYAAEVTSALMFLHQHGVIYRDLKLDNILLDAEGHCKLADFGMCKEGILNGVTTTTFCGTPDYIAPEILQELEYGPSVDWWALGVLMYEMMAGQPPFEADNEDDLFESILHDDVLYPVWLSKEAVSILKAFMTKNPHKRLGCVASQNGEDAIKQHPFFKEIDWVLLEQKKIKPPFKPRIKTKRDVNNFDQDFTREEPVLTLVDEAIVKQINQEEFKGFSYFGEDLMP
Sequence of UniProt P53778 (whole entry, looked up): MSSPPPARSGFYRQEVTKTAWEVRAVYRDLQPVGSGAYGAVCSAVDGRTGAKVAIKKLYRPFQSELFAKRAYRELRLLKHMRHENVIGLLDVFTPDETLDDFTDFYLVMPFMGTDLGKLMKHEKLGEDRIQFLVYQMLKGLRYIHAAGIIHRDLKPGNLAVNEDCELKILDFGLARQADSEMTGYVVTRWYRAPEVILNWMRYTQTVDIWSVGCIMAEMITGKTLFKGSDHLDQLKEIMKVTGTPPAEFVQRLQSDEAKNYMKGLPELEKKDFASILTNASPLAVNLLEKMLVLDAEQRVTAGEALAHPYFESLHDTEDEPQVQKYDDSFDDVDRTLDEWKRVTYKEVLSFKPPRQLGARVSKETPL
Sequence of UniProt P52564 (whole entry, looked up): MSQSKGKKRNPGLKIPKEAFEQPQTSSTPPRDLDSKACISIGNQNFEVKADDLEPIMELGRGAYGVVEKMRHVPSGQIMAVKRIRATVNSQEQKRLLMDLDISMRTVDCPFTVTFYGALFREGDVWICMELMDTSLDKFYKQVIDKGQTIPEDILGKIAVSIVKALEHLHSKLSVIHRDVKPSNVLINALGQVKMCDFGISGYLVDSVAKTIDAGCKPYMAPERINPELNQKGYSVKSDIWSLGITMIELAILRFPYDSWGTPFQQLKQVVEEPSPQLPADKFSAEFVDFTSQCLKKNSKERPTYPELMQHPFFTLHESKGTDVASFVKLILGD

Block 1
Structure (SMILES): Cc1ccc(O)c(C)c1-c1cnc2[nH]c(-c3cnc(N4CC5(CC(CN6CCN(c7ccc(NC8CCC(=O)NC8=O)cc7F)CC6)C5)C4)nc3)cc2c1C#N (stereo not shown)
Target: Membrane-associated tyrosine- and threonine-specific cdc2-inhibitory kinase (PKMYT1, Homo sapiens, UniProt Q99640)
Residues (Q99640 1-499): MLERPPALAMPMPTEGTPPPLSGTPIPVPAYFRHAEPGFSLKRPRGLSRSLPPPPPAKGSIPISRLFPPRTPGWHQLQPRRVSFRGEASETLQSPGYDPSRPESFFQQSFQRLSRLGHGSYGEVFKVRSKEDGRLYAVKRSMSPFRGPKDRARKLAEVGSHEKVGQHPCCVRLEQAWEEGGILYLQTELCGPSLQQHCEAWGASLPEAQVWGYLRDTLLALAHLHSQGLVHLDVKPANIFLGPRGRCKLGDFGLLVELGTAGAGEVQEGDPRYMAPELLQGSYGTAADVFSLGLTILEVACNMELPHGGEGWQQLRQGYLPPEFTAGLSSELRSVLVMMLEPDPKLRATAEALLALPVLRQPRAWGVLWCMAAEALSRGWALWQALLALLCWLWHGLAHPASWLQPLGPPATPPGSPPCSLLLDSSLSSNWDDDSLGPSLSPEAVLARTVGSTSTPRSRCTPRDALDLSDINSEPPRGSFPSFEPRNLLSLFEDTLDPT
The inhibition was 99.4% (cell-free assay, inhibitor, TR-FRET; 0.1111 µM).
It gave -0.84% for inhibition (0.000152 µM).
The inhibition was 99.1% (cell-free assay, inhibitor, TR-FRET; 0.3333 µM).
cell-free assay, inhibitor, TR-FRET; 152 pM — inhibition: 2.84%.
The inhibition was 8.09% (0.00046 µM).
The inhibition was 99.5% (cell-free assay, inhibitor, TR-FRET; 1 µM).
The inhibition was 98.8% (0.1111 µM).
0.3333 µM — inhibition: 99.3%.
It gave 98.1% for inhibition (cell-free assay, inhibitor, TR-FRET; 37.04 nM).
For cell-free assay, inhibitor, TR-FRET; 51 pM: inhibition read -1.39%.
For 0.01235 µM: inhibition read 92.9%.
It gave 99.1% for inhibition (1 µM).

Block 2
SMILES: CN(C1COC1)C(C)(C)/C=C(\C#N)C(=O)N1CCC[C@H]1Cn1nc(-c2ccc(Oc3ccccc3)cc2F)c2c(N)ncnc21
Observed: kinase activity
It gave 9% for inhibition (CSK (Homo sapiens, UniProt P41240); 0.1 µM).
BRSK2 (Homo sapiens, UniProt Q8IWQ3); 1 µM — inhibition: -2%.
STK25 (Homo sapiens, UniProt O00506); 1 µM — inhibition: 11%.
It gave -2% for inhibition (GRK6 (Homo sapiens, UniProt P43250); 1 µM).
For SRC (Homo sapiens, UniProt P12931); 0.1 µM: inhibition read 12%.
PLK2 (Homo sapiens, UniProt Q9NYY3); 0.1 µM — inhibition: 14%.
For PRKCE (Homo sapiens, UniProt Q02156); 1 µM: inhibition read -1%.
MAPK12 (Homo sapiens, UniProt P53778); 0.1 µM — inhibition: -3%.
MKNK2 (Homo sapiens, UniProt Q9HBH9); 1 µM — inhibition: 9%.
It gave 3% for inhibition (HASPIN (Homo sapiens, UniProt Q8TF76); 0.1 µM).
The inhibition was -5% (PI4KB (Homo sapiens, UniProt Q9UBF8); 1 µM).
CSNK2A1 (Homo sapiens, UniProt P68400); 1 µM — inhibition: 0%.
It gave 2% for inhibition (Tyrosine-protein kinase Lyn, isoform B (LYN, Homo sapiens, UniProt P07948); 0.1 µM).

Block 3
Structure (SMILES): C[C@@H]1CN(c2ccc(-c3cc(C(=O)NCCOCCOCCOCCOCCOCCOCCNC(=O)/C=C/c4[nH]cc(C(=O)N[C@@H](CC(N)=O)c5ccc(F)c(Cl)c5)c4-c4ccc(Cl)cc4F)ccc3F)cc2NC(=O)c2ccc(F)cc2C(F)(F)F)C[C@H](C)N1C
Observed: thermal unfolding
Method: differential scanning fluorimetry
Tested at: 5.5 µM
Direction: higher = more unfolded
DCAF1: DDB1- and CUL4-associated factor 1 (DCAF1, Homo sapiens, UniProt Q9Y4B6)
Sequence of UniProt Q9Y4B6 (whole entry, looked up): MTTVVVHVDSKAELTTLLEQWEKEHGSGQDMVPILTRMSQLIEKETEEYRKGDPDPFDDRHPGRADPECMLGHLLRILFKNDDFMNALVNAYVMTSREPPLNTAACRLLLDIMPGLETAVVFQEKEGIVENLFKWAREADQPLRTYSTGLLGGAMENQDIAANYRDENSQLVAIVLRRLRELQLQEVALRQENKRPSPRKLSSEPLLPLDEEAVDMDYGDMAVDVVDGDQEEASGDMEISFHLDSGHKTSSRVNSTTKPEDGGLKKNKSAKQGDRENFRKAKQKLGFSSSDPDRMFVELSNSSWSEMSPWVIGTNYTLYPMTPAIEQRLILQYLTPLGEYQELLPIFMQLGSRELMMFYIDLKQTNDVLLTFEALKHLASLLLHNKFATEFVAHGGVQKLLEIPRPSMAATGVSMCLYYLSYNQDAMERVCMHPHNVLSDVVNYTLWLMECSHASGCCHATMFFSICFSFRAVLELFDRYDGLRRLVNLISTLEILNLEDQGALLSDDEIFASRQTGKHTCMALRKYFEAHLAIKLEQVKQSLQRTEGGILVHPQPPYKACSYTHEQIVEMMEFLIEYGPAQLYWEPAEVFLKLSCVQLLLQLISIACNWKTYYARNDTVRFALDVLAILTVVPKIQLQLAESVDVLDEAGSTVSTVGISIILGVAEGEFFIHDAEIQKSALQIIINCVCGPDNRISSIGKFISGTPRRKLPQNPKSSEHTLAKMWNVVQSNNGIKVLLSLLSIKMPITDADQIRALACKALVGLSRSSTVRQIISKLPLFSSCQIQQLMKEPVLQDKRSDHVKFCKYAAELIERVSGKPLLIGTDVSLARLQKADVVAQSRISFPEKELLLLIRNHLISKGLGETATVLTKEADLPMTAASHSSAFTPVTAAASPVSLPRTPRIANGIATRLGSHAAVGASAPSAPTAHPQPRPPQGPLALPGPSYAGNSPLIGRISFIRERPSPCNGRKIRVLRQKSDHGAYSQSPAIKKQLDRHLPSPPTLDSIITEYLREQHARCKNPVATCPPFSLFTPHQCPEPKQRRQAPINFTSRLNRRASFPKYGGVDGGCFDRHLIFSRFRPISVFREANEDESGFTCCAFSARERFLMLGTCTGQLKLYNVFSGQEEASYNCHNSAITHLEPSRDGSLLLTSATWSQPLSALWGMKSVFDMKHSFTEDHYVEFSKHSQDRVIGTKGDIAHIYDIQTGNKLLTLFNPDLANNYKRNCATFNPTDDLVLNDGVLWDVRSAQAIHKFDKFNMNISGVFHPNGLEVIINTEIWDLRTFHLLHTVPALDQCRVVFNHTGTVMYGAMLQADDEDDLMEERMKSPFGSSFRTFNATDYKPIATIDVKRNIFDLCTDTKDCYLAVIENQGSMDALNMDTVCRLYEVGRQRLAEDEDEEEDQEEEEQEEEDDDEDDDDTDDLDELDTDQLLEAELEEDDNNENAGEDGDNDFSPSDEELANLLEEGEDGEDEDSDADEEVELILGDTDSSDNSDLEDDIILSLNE
WDR5: WD repeat-containing protein 5 (WDR5, Homo sapiens, UniProt P61964)
For DCAF1; 51 °C: “SYPRO Orange fluorescence” read 19000 a.u.
It gave 24800 a.u. for “SYPRO Orange fluorescence” (WDR5; 69.21 °C).
The “SYPRO Orange fluorescence” was 37800 a.u. (DCAF1; 82.81 °C).
It gave 65000 a.u. for “SYPRO Orange fluorescence” (WDR5; 80.21 °C).
For DCAF1; 41.4 °C: “SYPRO Orange fluorescence” read 12400 a.u.
WDR5; 73.81 °C — “SYPRO Orange fluorescence”: 43500 a.u.
DCAF1; 59.41 °C — “SYPRO Orange fluorescence”: 44900 a.u.
For WDR5; 40 °C: “SYPRO Orange fluorescence” read 14200 a.u.
It gave 18100 a.u. for “SYPRO Orange fluorescence” (WDR5; 66.41 °C).
It gave 36500 a.u. for “SYPRO Orange fluorescence” (DCAF1; 84.41 °C).
The “SYPRO Orange fluorescence” was 15100 a.u. (DCAF1; 46.2 °C).

Block 4
Structure (SMILES): CC[C@@]1(c2ccccc2)C2=C(CC(C)(C)CC2=O)Nc2n[nH]cc21
Tested at: 1 µM
For CSNK1G1 (Homo sapiens, UniProt Q9HCP0); binding, competition with immobilised ligand: remaining binding read 96%.
WNK2 (Homo sapiens, UniProt Q9Y3S1); binding, competition with immobilised ligand — remaining binding: 100%.
KIT (Homo sapiens, UniProt P10721, V559D/V654A); kinase binding, KINOMEscan; reference: DMSO control — remaining binding: 93%.
For PRKD1 (Homo sapiens, UniProt Q15139); binding, competition with immobilised ligand: remaining binding read 100%.
For MAP2K6 (Homo sapiens, UniProt P52564); binding, competition with immobilised ligand: remaining binding read 92%.
For MAP3K12 (Homo sapiens, UniProt Q12852); kinase binding, KINOMEscan; reference: DMSO control: remaining binding read 100%.
The remaining binding was 92% (CDK4 (Homo sapiens, UniProt P11802); binding, competition with immobilised ligand).
For PRKCE (Homo sapiens, UniProt Q02156); kinase binding, KINOMEscan; reference: DMSO control: remaining binding read 93%.
For PIP5K1A (Homo sapiens, UniProt Q99755); kinase binding, KINOMEscan; reference: DMSO control: remaining binding read 98%.
For EGFR (Homo sapiens, UniProt P00533, L861Q); binding, competition with immobilised ligand: remaining binding read 100%.
For MAPK12 (Homo sapiens, UniProt P53778); kinase binding, KINOMEscan; reference: DMSO control: remaining binding read 99%.
For FYN (Homo sapiens, UniProt P06241); binding, competition with immobilised ligand: remaining binding read 100%.
The remaining binding was 98% (TEC (Homo sapiens, UniProt P42680); binding, competition with immobilised ligand).
The remaining binding was 100% (EGFR (Homo sapiens, UniProt P00533, A750P/del747-749); kinase binding, KINOMEscan; reference: DMSO control).
NTRK2 (Homo sapiens, UniProt Q16620); binding, competition with immobilised ligand — remaining binding: 79%.
It gave 100% for remaining binding (PRKCH (Homo sapiens, UniProt P24723); binding, competition with immobilised ligand).
The remaining binding was 100% (Ribosomal protein S6 kinase alpha-6, N-terminal kinase domain (RPS6KA6, Homo sapiens, UniProt Q9UK32); binding, competition with immobilised ligand).
It gave 99% for remaining binding (NIM1K (Homo sapiens, UniProt Q8IY84); kinase binding, KINOMEscan; reference: DMSO control).
For CAMK2G (Homo sapiens, UniProt Q13555); binding, competition with immobilised ligand: remaining binding read 90%.
It gave 100% for remaining binding (Macrophage colony-stimulating factor 1 receptor, autoinhibited (CSF1R, Homo sapiens, UniProt P07333); binding, competition with immobilised ligand).

Block 5
Structure (SMILES): NC/C(=C\F)COc1ccc(-c2cc(=O)[nH]c(=S)n2CC(N)=O)c(Cl)c1
Observed: enzyme activity
AOC3: Amine oxidase [copper-containing] 3 (AOC3, Homo sapiens, UniProt Q16853)
Sequence of UniProt Q16853 (whole entry, looked up): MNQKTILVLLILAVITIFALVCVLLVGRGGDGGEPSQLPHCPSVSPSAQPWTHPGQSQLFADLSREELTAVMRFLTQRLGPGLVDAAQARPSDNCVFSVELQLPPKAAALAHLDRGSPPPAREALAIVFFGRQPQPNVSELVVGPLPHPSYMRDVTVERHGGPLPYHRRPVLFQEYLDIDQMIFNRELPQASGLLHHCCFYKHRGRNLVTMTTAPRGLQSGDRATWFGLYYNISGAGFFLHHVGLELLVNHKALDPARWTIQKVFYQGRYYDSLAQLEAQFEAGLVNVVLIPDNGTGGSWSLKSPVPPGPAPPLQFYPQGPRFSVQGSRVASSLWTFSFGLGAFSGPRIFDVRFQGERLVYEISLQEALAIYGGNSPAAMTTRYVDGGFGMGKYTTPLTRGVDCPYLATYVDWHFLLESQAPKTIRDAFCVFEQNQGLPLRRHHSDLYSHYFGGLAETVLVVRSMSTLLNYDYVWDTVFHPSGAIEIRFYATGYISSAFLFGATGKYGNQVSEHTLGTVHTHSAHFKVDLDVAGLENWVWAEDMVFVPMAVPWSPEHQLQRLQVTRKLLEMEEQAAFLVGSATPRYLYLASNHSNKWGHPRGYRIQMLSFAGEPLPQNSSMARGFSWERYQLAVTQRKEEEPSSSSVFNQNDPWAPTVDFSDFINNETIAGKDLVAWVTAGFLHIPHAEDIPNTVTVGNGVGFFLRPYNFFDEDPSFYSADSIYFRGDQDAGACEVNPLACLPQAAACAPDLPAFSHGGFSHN
MPO: Myeloperoxidase (MPO, Homo sapiens, UniProt P05164)
Sequence of UniProt P05164 (whole entry, looked up): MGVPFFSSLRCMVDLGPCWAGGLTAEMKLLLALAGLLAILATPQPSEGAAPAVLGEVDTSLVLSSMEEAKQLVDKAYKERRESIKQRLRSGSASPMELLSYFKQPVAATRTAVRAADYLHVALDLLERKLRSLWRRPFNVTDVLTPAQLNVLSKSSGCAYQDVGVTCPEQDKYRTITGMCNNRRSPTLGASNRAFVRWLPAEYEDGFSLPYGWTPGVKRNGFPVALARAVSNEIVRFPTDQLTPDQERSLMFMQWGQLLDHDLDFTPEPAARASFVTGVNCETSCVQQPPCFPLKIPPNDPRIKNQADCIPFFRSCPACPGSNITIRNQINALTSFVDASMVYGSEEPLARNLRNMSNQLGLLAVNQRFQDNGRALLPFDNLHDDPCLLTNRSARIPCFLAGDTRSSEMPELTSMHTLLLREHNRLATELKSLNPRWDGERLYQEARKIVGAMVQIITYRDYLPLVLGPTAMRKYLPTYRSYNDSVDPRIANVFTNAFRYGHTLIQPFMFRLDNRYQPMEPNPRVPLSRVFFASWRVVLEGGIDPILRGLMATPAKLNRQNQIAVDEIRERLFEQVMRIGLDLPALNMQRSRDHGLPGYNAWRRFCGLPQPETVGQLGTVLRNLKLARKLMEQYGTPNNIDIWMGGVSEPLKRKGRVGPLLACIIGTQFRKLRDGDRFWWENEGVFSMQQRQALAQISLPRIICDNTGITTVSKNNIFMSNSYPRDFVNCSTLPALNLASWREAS
The inhibition was 98.7% (AOC3; Amplex Red H2O2 production; 3.333 µM).
The inhibition was -9.27% (MPO; inhibitor, fluorescence; 1.5 nM).
For MPO; inhibitor, fluorescence; 41.2 nM: inhibition read 27.8%.
It gave -8.51% for inhibition (MPO; inhibitor, fluorescence; 500 pM).
It gave 58.1% for inhibition (MPO; inhibitor, fluorescence; 0.1235 µM).
It gave 95% for inhibition (AOC3; inhibitor, fluorescence; 1.111 µM).
For MPO; inhibitor, fluorescence; 6.9 nM: inhibition read -5.39% and 2.36%.
It gave 74.7% for inhibition (MPO; inhibitor, fluorescence; 0.3704 µM).

Block 6
Structure (SMILES): COc1cc(-c2nc3ccc(C(=O)NCCCN4CCN(c5cccc(C)c5C)CC4)cc3n2C2CCC2)cc(OC)c1OC
It gave 100% for remaining binding (MST1R (Homo sapiens, UniProt Q04912); binding, competition with immobilised ligand; 1 µM).
It gave 87% for remaining binding (STK25 (Homo sapiens, UniProt O00506); binding, competition with immobilised ligand; 1 µM).
For PIK3C2G (Homo sapiens, UniProt O75747); binding, competition with immobilised ligand; 1 µM: remaining binding read 46%.
The remaining binding was 87% (CDK13 (Homo sapiens, UniProt Q14004); binding, competition with immobilised ligand; 1 µM).
It gave 100% for remaining binding (FGFR3 (Homo sapiens, UniProt P22607, G697C); binding, competition with immobilised ligand; 1 µM).
CLK3 (Homo sapiens, UniProt P49761); binding, competition with immobilised ligand; 1 µM — remaining binding: 97%.
The remaining binding was 100% (FLT3 ITD F691L human; KINOMEscan; 1000 nM; reference: DMSO control).
It gave 100% for remaining binding (PIK3CA (Homo sapiens, UniProt P42336, E545A); binding, competition with immobilised ligand; 1 µM).
For PIK3C3 (Homo sapiens, UniProt Q8NEB9); binding, competition with immobilised ligand; 1 µM: remaining binding read 69%.
The remaining binding was 91% (ABL2 (Homo sapiens, UniProt P42684); binding, competition with immobilised ligand; 1 µM).
GRK4 (Homo sapiens, UniProt P32298); binding, competition with immobilised ligand; 1 µM — remaining binding: 88%.
For MKNK2 (Homo sapiens, UniProt Q9HBH9); binding, competition with immobilised ligand; 1 µM: remaining binding read 98%.
It gave 88% for remaining binding (MAP3K13 (Homo sapiens, UniProt O43283); binding, competition with immobilised ligand; 1 µM).
For MAP4K2 (Homo sapiens, UniProt Q12851); binding, competition with immobilised ligand; 1 µM: remaining binding read 72%.
The remaining binding was 94% (MATK (Homo sapiens, UniProt P42679); binding, competition with immobilised ligand; 1 µM).
It gave 88% for remaining binding (PIP5K1A (Homo sapiens, UniProt Q99755); binding, competition with immobilised ligand; 1 µM).
It gave 100% for remaining binding (MYLK4 (Homo sapiens, UniProt Q86YV6); binding, competition with immobilised ligand; 1 µM).
The remaining binding was 80% (EGFR (Homo sapiens, UniProt P00533, del752-759); binding, competition with immobilised ligand; 1 µM).
It gave 25% for remaining binding (SLK (Homo sapiens, UniProt Q9H2G2); binding, competition with immobilised ligand; 1 µM).
For TGFBR1 (Homo sapiens, UniProt P36897); binding, competition with immobilised ligand; 1 µM: remaining binding read 81%.
AAK1 (Homo sapiens, UniProt Q2M2I8); binding, competition with immobilised ligand; 1 µM — remaining binding: 99%.
The remaining binding was 89% (CDK8 (Homo sapiens, UniProt P49336); binding, competition with immobilised ligand; 1 µM).
For EPHA8 (Homo sapiens, UniProt P29322); binding, competition with immobilised ligand; 1 µM: remaining binding read 96%.
For SIK3 (Homo sapiens, UniProt Q9Y2K2); binding, competition with immobilised ligand; 1 µM: remaining binding read 74%.

Block 7
Structure (SMILES): CCN1/C(=C/C=C2\CCCC(/C=C/C3=[N+](CC)c4ccccc4C3(C)C)=C2NCCCCCCCCN2CCC(Nc3nc4ccccc4n3Cc3ccc(F)cc3)CC2)C(C)(C)c2ccccc21
Cell line: U-87 MG
Tested at: concentration not given
Reference: DMSO
For refers to: JARID2 mRNA: “log2 fold change” read 1.44.
It gave -0.907 for “log2 fold change” (refers to: FAAP100 mRNA).
For refers to: TRAIP mRNA: “log2 fold change” read -1.1.
For refers to: GPR85 mRNA: “log2 fold change” read -0.881.
refers to: NSD2 mRNA — “log2 fold change”: -0.942.
For refers to: ANXA8L1 mRNA: “log2 fold change” read -1.92.
For refers to: KRTAP2-3: “log2 fold change” read -5.04.
It gave 1.08 for “log2 fold change” (refers to: JUND mRNA).
It gave -2.55 for “log2 fold change” (refers to: SAPCD2 mRNA).
For refers to: PKP3 mRNA: “log2 fold change” read -1.83.
refers to: NAPEPLD mRNA — “log2 fold change”: -0.838.
refers to: RNF103 mRNA — “log2 fold change”: 1.03.

Excerpt of the above (block 2):
It gave 9% for inhibition (CSK (Homo sapiens, UniProt P41240); 0.1 µM).
BRSK2 (Homo sapiens, UniProt Q8IWQ3); 1 µM — inhibition: -2%.
STK25 (Homo sapiens, UniProt O00506); 1 µM — inhibition: 11%.
It gave -2% for inhibition (GRK6 (Homo sapiens, UniProt P43250); 1 µM).
For SRC (Homo sapiens, UniProt P12931); 0.1 µM: inhibition read 12%.
PLK2 (Homo sapiens, UniProt Q9NYY3); 0.1 µM — inhibition: 14%.
For PRKCE (Homo sapiens, UniProt Q02156); 1 µM: inhibition read -1%.
MAPK12 (Homo sapiens, UniProt P53778); 0.1 µM — inhibition: -3%.
MKNK2 (Homo sapiens, UniProt Q9HBH9); 1 µM — inhibition: 9%.
It gave 3% for inhibition (HASPIN (Homo sapiens, UniProt Q8TF76); 0.1 µM).
The inhibition was -5% (PI4KB (Homo sapiens, UniProt Q9UBF8); 1 µM).
CSNK2A1 (Homo sapiens, UniProt P68400); 1 µM — inhibition: 0%.
It gave 2% for inhibition (Tyrosine-protein kinase Lyn, isoform B (LYN, Homo sapiens, UniProt P07948); 0.1 µM).
